Measured values of several laboratories.
Each line is one published result; not all experiments were run side by side. Numbers after ± are the reported error.
B1: acetylcholinesterase; chain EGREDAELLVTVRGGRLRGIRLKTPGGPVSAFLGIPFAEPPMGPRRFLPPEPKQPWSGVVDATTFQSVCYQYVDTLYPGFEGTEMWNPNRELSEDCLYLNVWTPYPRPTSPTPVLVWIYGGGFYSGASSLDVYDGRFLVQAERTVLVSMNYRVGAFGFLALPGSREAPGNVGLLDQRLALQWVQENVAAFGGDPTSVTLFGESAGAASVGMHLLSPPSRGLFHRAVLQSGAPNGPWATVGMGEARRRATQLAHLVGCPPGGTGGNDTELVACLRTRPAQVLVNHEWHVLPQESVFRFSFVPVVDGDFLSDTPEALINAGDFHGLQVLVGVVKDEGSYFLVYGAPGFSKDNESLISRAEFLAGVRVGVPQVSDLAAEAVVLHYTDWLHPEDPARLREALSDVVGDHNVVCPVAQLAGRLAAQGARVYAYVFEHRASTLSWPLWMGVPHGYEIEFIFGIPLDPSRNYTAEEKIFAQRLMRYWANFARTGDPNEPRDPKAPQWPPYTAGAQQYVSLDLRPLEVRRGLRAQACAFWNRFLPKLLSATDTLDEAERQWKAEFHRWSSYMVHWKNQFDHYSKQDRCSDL

Substance	target or system	test	test system	setting	how to read	measurement	result
Cl.Cn1sccc1=O	cysteine peptide Ac-RFAACAA-COOH	DPRA RapidFire-MS/MS		24 h, pH 7.5, together with: 5.0 µM cysteine peptide		maximal peptide depletion	-102%
Oc1c(Cl)c(Cl)c(Cl)c(Cl)c1Cl	aequorin, Aequorea victoria	bioluminescence, inhibitor		1.0×100 µM, together with: coelenterazine	relative to: no inhibitor	inhibition	34%
O=C(O[C@@H]1Cc2c(O)cc(O)cc2O[C@@H]1c1cc(O)c(O)c(O)c1)c1cc(O)c(O)c(O)c1	alpha-synuclein	thioflavin T fluorescence		2 molar equivalents, pH 6.6, 37 °C, together with: HFIP 2 vol-%	relative to: uninhibited control	amyloid formation	22 ± 7%
Clc1ccc(C(c2ccc(Cl)cc2)C(Cl)(Cl)Cl)cc1	estrogen receptor alpha (human)	luciferase reporter gene, agonist	BG1Luc4E2	10 µM, 24 h	relative to: maximum of estradiol	efficacy	19 ± 5%
N#CCCC(Br)(C#N)CBr (centres unmarked)	cysteine peptide Ac-RFAACAA-COOH	DPRA RapidFire-MS/MS		24 h, pH 7.5, together with: 5.0 µM cysteine peptide		maximal peptide depletion	-102%
(−)-discorhabdin H	HIF-1α	HRE reporter gene, inhibitor	LNCaP	18 h, 1% O2, nontoxic concentration		effective concentration	0.1 µM
CC(C)[C@@H]1NC(=O)c2coc(n2)-c2coc(n2)-c2coc(n2)C/C=C/c2coc(n2)-c2coc(n2)-c2coc1n2	salmon testes duplex DNA	UV melting		15 µM, pH 7.5, together with: 50 mM K+	relative to: DNA without compound	melting temperature shift	0 °C
Cc1cc(O)c(C(=O)N[C@@H](C(=O)N[C@@H]2C(=O)N3C(C(=O)O)=C(CSc4nnnn4C)CS[C@H]23)c2ccc(O)cc2)cn1	Neisseria gonorrhoeae PBP2 H041			1 h, pH 8.0, room temperature, together with: Bocillin-FL competitor		acylation rate constant k2/Ks	120 ± 14 M⁻¹ s⁻¹
Clc1ccc(-c2cc(Cl)c(Cl)c(Cl)c2)c(Cl)c1	aequorin, Aequorea victoria	bioluminescence, inhibitor		1.0×100 µM, together with: coelenterazine	relative to: no inhibitor	inhibition	36%
IWWHIAKFG	adeno-associated virus 2	capsid binding, bind-and-elute chromatography	peptide	peptide ligand resin, MgCl2 elution		recovery yield	54.9%
CN[C@H](CC(C)C)C(=O)N[C@H]1C(=O)N[C@@H](CC(N)=O)C(=O)N[C@H]2C(=O)N[C@H]3C(=O)N[C@H](C(=O)N[C@H](C(=O)O)c4cc(O)cc(O)c4-c4cc3ccc4O)[C@H](O)c3ccc(c(Cl)c3)Oc3cc2cc(c3O[C@@H]2O[C@H](CO)[C@@H](O)[C@H](O)[C@H]2O[C@H]2C[C@](C)(N)[C@H](O)[C@H](C)O2)Oc2ccc(cc2Cl)[C@H]1O	D-Ala peptide	cantilever array	phosphate buffer	10 nM		differential cantilever bending	-9 ± 2 nm
CC(C)=CCCC(C)=CCCC(C)=CC=O	cysteine peptide Ac-RFAACAA-COOH	RapidFire MS DPRA		lowest to highest concentration		peptide depletion span	-17.4%
O=C1c2cc(OCc3ccccc3)nn2CCN1c1ccc(F)cc1	mGlu1, 2, 4, 6, 7, 8 receptors			selectivity screen		EC50	> 10000 nM
Nc1nc(/C(=N/O)C(=O)N[C@@H]2C(=O)N3C(C(=O)O)=C(/C=C4\CCN([C@@H]5CCNC5)C4=O)CS[C@H]23)ns1	Neisseria gonorrhoeae PBP2 H041			1 h, pH 8.0, room temperature, together with: Bocillin-FL competitor		acylation rate constant k2/Ks	3230 ± 190 M⁻¹ s⁻¹
O=C1C=CC(=O)C=C1	cysteine peptide Ac-RFAACAA-COOH	DPRA RapidFire-MS/MS		24 h, pH 7.5, together with: 5.0 µM cysteine peptide		maximal peptide depletion	-119%
Suc-Ala-Ala-Pro-Phe-chloromethyl ketone	Schistosoma mansoni cercarial peptidases	peptide bond cleavage	Schistosoma mansoni, cercarial secretions	500 nM, 30 min, pH 7.5		inhibition	36%

Substance	target or system	test	test system	setting	how to read	measurement	result
C=CC1=C(C(=O)O)N2C(=O)[C@@H](NC(=O)/C(=N\OCC(=O)O)c3csc(N)n3)[C@H]2SC1	Neisseria gonorrhoeae PBP2 H041			1 h, pH 8.0, room temperature, together with: Bocillin-FL competitor		acylation rate constant k2/Ks	720 ± 60 M⁻¹ s⁻¹
WKAHNKG	adeno-associated virus 2	capsid binding, bind-and-elute chromatography	peptide	peptide ligand resin, MgCl2 elution		recovery yield	79.8%
CC[C@H](C)[C@H](NC(=O)[C@H](CCCNC(=N)N)NC(=O)[C@H](C)NC(=O)[C@H](Cc1c[nH]c2ccccc12)NC(=O)[C@H](CO)NC(=O)CNC(=O)[C@H](CC(C)C)NC(=O)[C@H](Cc1ccccc1)NC(=O)[C@H](CCCNC(=N)N)NC(=O)[C@H](CCCNC(=N)N)NC(=O)[C@H](Cc1ccccc1)NC(=O)CNC(C)=O)C(=O)N[C@@H](Cc1ccc(O)cc1)C(=O)N[C@@H](CCCNC(=N)N)C(=O)N[C@@H](C)C(=O)N[C@@H](Cc1ccccc1)C(=O)N[C@H](C(=O)NCC(N)=O)C(C)C	LPS	surface plasmon resonance	Escherichia coli, 026:B6	25 °C		association rate constant	67200 M⁻¹ s⁻¹
B1 (acetylcholinesterase)	amyloid oligomers	ELISA, A11 capture	A549 conditioned medium		relative to: mouse IgG	complex formation	binds
Cc1ccccc1NC(=O)Nc1ccc(CC(=O)N[C@@H](CCCCNC(=O)/C=C/c2cccnc2)C(=O)N[C@@H](CCCC(=O)O)C(=O)NC2(C(=O)N[C@@H](CCCCNC(=O)CCOCCOCCOCCOCCNC(=O)CN3CCCN4CCN(CCCN(CP(=O)(O)O)CC4)CC3)C(N)=O)CCCCC2)cc1 [copper-64 labelled]	VLA-4		B16-F10	0.44 MBq per well, 15 min, 37 °C, corrected for blocked uptake		internalized tracer	9.2 ± 1.4 fmol/mg
O=S(=O)(CC1CS1)c1ccc(Oc2ccccc2)cc1 (centres unmarked)	LRP1	ELISA	apoE4-TR mice, soluble brain fraction	intraperitoneal, 25 mg/kg, 45 min before intracranial Aβ, brains collected 10 min later, together with: intracranial Aβ(1-42)	relative to: vehicle, higher = stronger reduction	soluble LRP1 level	> 2 fold
C[C@H](NC(=O)Cc1cc(F)cc(F)c1)C(=O)N[C@H]1N=C(c2ccccc2)c2ccccc2N(C)C1=O	γ-secretase	inhibitor, microdialysis	J20 hAPP transgenic mice, 24 months, hippocampal interstitial fluid	intraperitoneal, 3 mg/kg		half-life of Aβ38 decline	~1.9 h
C=Cc1ccccn1	cysteine peptide Ac-RFAACAA-COOH	DPRA RapidFire-MS/MS		24 h, pH 7.5, together with: 5.0 µM cysteine peptide		peptide depletion	inactive
N[C@@H](C(=O)N[C@@H]1C(=O)N2C(C(=O)O)=C(Cl)CS[C@H]12)c1ccccc1	Neisseria gonorrhoeae PBP2 H041			1 h, pH 8.0, room temperature, together with: Bocillin-FL competitor		acylation rate constant k2/Ks	29 ± 4 M⁻¹ s⁻¹
C[C@@H](CO)CCC[C@@H](C)[C@H]1CC[C@H]2[C@@H]3CC=C4C[C@@H](O)CC[C@]4(C)[C@H]3CC[C@]12C	mouse carboxylesterase	enzyme activity	J774 cell lysate	concentration not given, together with: p-nitrophenyl valerate		inhibition	no inhibition
CO/N=C(\C(=O)N[C@@H]1C(=O)N2C(C(=O)[O-])=C(C[N+]3(C)CCCC3)CS[C@H]12)c1csc(N)n1	Neisseria gonorrhoeae PBP2 H041			1 h, pH 8.0, room temperature, together with: Bocillin-FL competitor		acylation rate constant k2/Ks	630 ± 50 M⁻¹ s⁻¹
Clc1ccc(-c2ccc(Cl)cc2Cl)cc1	aequorin, Aequorea victoria	bioluminescence, inhibitor		1.0×100 µM, together with: coelenterazine	relative to: no inhibitor	inhibition	41%
CCO/N=C(\C(=O)N[C@@H]1C(=O)N2C(C(=O)[O-])=C(Sc3nc(-c4cc[n+](C)cc4)cs3)CS[C@H]12)c1nsc(N)n1	Neisseria gonorrhoeae PBP2 H041			1 h, pH 8.0, room temperature, together with: Bocillin-FL competitor		acylation rate constant k2/Ks	10900 ± 1700 M⁻¹ s⁻¹
CN[C@@](C)(C[18F])C(=O)O	DU-145 tumour model		host not given, lung	2 h, tumour-bearing		tracer uptake	1.5 %ID/g
CCN1CCN(C(=O)N[C@@H](C(=O)N[C@@H]2C(=O)N3C(C(=O)O)=C(CSc4nnnn4C)CS[C@H]23)c2ccc(O)cc2)C(=O)C1=O	Neisseria gonorrhoeae PBP2 H041			1 h, pH 8.0, room temperature, together with: Bocillin-FL competitor		acylation rate constant k2/Ks	11800 ± 1300 M⁻¹ s⁻¹
CC[C@H](C)[C@H](NC(=O)[C@@H](CCCNC(=N)N)NC(=O)[C@H](CCCNC(=N)N)NC(=O)[C@@H]1CCCN1C(=O)[C@@H]1CCCN1C(=O)[C@H](CCCNC(=N)N)NC(=O)[C@@H]1CCCN1C(=O)[C@H](CCCNC(=N)N)NC(=O)[C@@H]1CCCN1C(=O)[C@H](CC(C)C)NC(=O)[C@H](Cc1ccc(O)cc1)NC(=O)[C@@H]1CCCN1C(=O)[C@@H]1CCCN1C(=O)[C@H](CCCCN)NC(=O)[C@H](CC(=O)O)NC(=O)[C@@H](N)C(C)C)C(=O)N[C@@H](Cc1ccc(O)cc1)C(=O)N[C@@H](CC(N)=O)C(=O)N[C@H](CCCNC(=N)N)C(N)=O	Escherichia coli BW25113 70S ribosome	fluorescence polarization		90 min		Kd	36 ± 14 nM

Excerpt of the above:
Substance	target or system	test	test system	setting	how to read	measurement	result
Cc1cc(O)c(C(=O)N[C@@H](C(=O)N[C@@H]2C(=O)N3C(C(=O)O)=C(CSc4nnnn4C)CS[C@H]23)c2ccc(O)cc2)cn1	Neisseria gonorrhoeae PBP2 H041			1 h, pH 8.0, room temperature, together with: Bocillin-FL competitor		acylation rate constant k2/Ks	120 ± 14 M⁻¹ s⁻¹
CCN1CCN(C(=O)N[C@@H](C(=O)N[C@@H]2C(=O)N3C(C(=O)O)=C(CSc4nnnn4C)CS[C@H]23)c2ccc(O)cc2)C(=O)C1=O	Neisseria gonorrhoeae PBP2 H041			1 h, pH 8.0, room temperature, together with: Bocillin-FL competitor		acylation rate constant k2/Ks	11800 ± 1300 M⁻¹ s⁻¹
